Measured values collected from several papers.
Each numbered part is a random draw from the data of one study; scales do not carry over between parts. Changes are numbered by the printed parent chain.

Sample 1 — method: protein binding microarray; form: double-stranded DNA, one strand shown; medium: in vitro; concentration: not given; relative to: not given; reading: higher = stronger binding; endpoint: E-score
Target: Histone acetyltransferase KAT6A, both winged helices, GST fusion (KAT6A, Homo sapiens, UniProt Q92794, residues 1-181)
Setting: 8-mer, flanks averaged, mean of 2 arrays, mostly near background
Construct (chain): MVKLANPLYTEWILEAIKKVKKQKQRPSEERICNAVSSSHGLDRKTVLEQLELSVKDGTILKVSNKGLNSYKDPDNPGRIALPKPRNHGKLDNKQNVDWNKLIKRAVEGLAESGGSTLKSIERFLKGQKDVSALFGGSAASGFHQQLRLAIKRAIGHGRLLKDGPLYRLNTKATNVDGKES
Sequence = AGACATTG; result = -0.00171
Sequence = GCGTGTGA; result = 0.215
Sequence = GGCATCCC; result = -0.0107
Sequence = ATCATTTC; result = -0.106
Sequence = TACGTGAA; result = 0.0138
Sequence = AACCAGGA; result = -0.0124
Sequence = CTTTGCAC; result = -0.216
Sequence = AAGTTACC; result = 0.0334
Sequence = CAGTAGCC; result = 0.00911
Sequence = CAAAGCGA; result = -0.078
Sequence = GCAAGGGA; result = -0.104
Sequence = AGATACCC; result = -0.0408
Sequence = ACACAGTC; result = -0.107
Sequence = AGCCTGAA; result = -0.18
Sequence = CTCAGCTC; result = -0.151
Sequence = GAGCCTCA; result = 0.0436
Sequence = ACGAAAAT; result = -0.06
Sequence = CCGGGATA; result = 0.158
Sequence = AAGGCTAG; result = -0.182
Sequence = CAACTGTA; result = -0.0886
Sequence = ACCACTCA; result = -0.181
Sequence = CACATCGC; result = 0.102
Sequence = CATCCCAA; result = -0.205
Sequence = GAGGTTGC; result = 0.0432

Sample 2 — target: CCNE2, cyclin fold, Cln2 fusion (human); method: yeast growth competition, sequencing; medium: yeast; setting: weak parent motif; relative to: not given; reading: higher = stronger binding; endpoint: normalised enrichment score
Starting sequence: SLBP docking peptide (human); ARYKRKLLINDFG
Substitution = Y3H; result = 0.812
Substitution = R2N; result = 1
Substitution = F12R; result = 1.5
Substitution = D11L; result = 1.8
Substitution = N10A; result = 0.636
Substitution = G13P; result = 0.951
Substitution = L8P; result = 0.555
Substitution = F12Y; result = 1.47
Substitution = L8M; result = 1.25
Substitution = K6V; result = 0.707
Substitution = D11K; result = 1.53
Substitution = L8R; result = 0.285
Substitution = R5W; result = -0.566
Substitution = K6F; result = -0.23
Substitution = L7N; result = 0.894
Substitution = K6L; result = 1.09
Substitution = K6G; result = 0.441
Substitution = G13I; result = 0.782
Substitution = A1I; result = 0.593
Substitution = K4E; result = 0.0779
Substitution = R2Q; result = 0.853
Substitution = I9D; result = 0.12
Substitution = G13N; result = 0.98
Substitution = D11N; result = 0.697
Substitution = L7P; result = 0.429

Sample 3 — method: aptamer microarray, sandwich; form: DNA with 2'F-ANA; medium: in vitro; concentration: 200 nM; together with: Cy3 exosite-II aptamer, 400 nM; reading: higher = stronger binding; endpoint: mean fluorescence intensity; sequence: GGTTGGTGTGGTTGG
Target: Prothrombin, mature alpha-thrombin (F2, Homo sapiens, UniProt P00734)
Setting: whole 15-mer aptamer, many near background
Modification = 2'F-ANA at 1 4 7 11 13; result = 88.1 a.u.
Modification = 2'F-ANA at 1 5 8 9 10 11 12 13 14; result = 47.9 a.u.
Modification = 2'F-ANA at 1 2 3 4 11 13 15; result = 125 a.u.
Modification = 2'F-ANA at 2 3 5 6 7 11; result = 73.4 a.u.
Modification = 2'F-ANA at 1 2 3 4 7 10 11 13 14; result = 48.1 a.u.
Modification = 2'F-ANA at 1 2 7 8 11 13; result = 305 a.u.
Modification = 2'F-ANA at 2 5 6 7 8 10 13 15; result = 45.9 a.u.
Modification = 2'F-ANA at 1 3 7 11 12 14 15; result = 124 a.u.
Modification = 2'F-ANA at 2 9 12 14; result = 182 a.u.
Modification = 2'F-ANA at 2 5 6 7 8 12 13; result = 141 a.u.
Modification = 2'F-ANA at 1 3 4 5 6 10 11 12 13 14; result = 51.3 a.u.
Modification = 2'F-ANA at 1 2 3 4 5 6 7 8 9 11 13 14 15; result = 54.2 a.u.
Modification = 2'F-ANA at 1 7 8 13 14; result = 64.5 a.u.
Modification = 2'F-ANA at 1 6 10 13 14 15; result = 50.3 a.u.
Modification = 2'F-ANA at 1 7 13; result = 152 a.u.
Modification = 2'F-ANA at 1 5 7 9 11 12 15; result = 87.4 a.u.
Modification = 2'F-ANA at 4 6 9 11 12; result = 425 a.u.
Modification = 2'F-ANA at 2 4 5 7; result = 70 a.u.
Modification = 2'F-ANA at 1 7 9 10 11 13 15; result = 52.8 a.u.
Modification = 2'F-ANA at 2 3 4 5 6 7 10; result = 47.2 a.u.
Modification = 2'F-ANA at 1 2 3 5 7 8 15; result = 70.9 a.u.
Modification = 2'F-ANA at 1 2 3 5 6 8 10 13 14; result = 163 a.u.
Modification = 2'F-ANA at 1 2 3 5 8 9 10 12 14 15; result = 49.7 a.u.
Modification = 2'F-ANA at 1 2 3 4 5 6 7 10 13 14 15; result = 77.6 a.u.
Modification = 2'F-ANA at 1 4 5 7 10 11 12 13 14 15; result = 156 a.u.

Sample 4 — method: DHFR PCA, deep sequencing; medium: yeast; together with: (+)-ABA 58 µM; relative to: wild-type fitted maximum; reading: higher = stronger binding; endpoint: relative binding score
Target: ABI1, truncated, D143A, DHFR fusion (Arabidopsis thaliana)
Setting: methotrexate growth selection, single substitutions
Starting sequence: PYL1, truncated, DHFR fusion (Arabidopsis thaliana); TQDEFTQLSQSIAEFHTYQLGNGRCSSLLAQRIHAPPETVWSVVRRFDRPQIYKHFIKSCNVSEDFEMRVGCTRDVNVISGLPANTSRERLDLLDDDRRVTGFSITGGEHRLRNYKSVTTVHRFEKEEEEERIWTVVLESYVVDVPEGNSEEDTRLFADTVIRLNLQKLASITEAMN; partner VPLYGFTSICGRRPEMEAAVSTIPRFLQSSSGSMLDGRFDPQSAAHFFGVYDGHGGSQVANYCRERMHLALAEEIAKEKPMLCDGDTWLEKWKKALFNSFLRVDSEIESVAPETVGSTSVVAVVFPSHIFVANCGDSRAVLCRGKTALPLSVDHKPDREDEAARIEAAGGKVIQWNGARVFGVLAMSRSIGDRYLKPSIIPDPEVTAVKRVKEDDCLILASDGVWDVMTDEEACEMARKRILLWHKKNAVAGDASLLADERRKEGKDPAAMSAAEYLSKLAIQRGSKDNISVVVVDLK
Substitution = Q51G; result = 57.6%
Substitution = R155E; result = 37.4%
Substitution = T160P; result = -0.138%
Substitution = D48H; result = 30.2%
Substitution = H34M; result = 94.5%
Substitution = S59K; result = 74.1%
Substitution = V43R; result = 16%
Substitution = G107E; result = 66.7%
Substitution = L166H; result = 64%
Substitution = F15Q; result = 42.2%
Substitution = P50Y; result = -3.79%
Substitution = E147H; result = 83.5%
Substitution = P83K; result = -5.2%
Substitution = R32G; result = 52.5%
Substitution = T120I; result = 7.27%
Substitution = Q7G; result = 93.8%

Sample 5 — target: DBP, bZIP domain (human); method: DHFR protein complementation; medium: yeast; relative to: wild-type JUN-FOS pair; reading: higher = stronger binding; endpoint: binding fitness
Setting: single substitutions, most at no-binding floor
Starting sequence: JUN, bZIP domain (human); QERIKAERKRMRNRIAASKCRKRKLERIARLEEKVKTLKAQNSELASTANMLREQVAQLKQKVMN; partner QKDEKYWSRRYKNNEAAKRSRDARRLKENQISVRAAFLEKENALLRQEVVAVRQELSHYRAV
Substitution = R53H; result = -1.49 natural log
Substitution = L52C; result = -1.46 natural log
Substitution = L31H; result = -1.4 natural log
Substitution = I28N; result = -1.47 natural log
Substitution = K39S; result = -1.41 natural log
Substitution = S43V; result = -1.45 natural log
Substitution = E32C; result = -1.48 natural log
Substitution = A49G; result = -1.47 natural log
Substitution = A49Q; result = -1.39 natural log
Substitution = K36G; result = -1.38 natural log
Substitution = V35I; result = -1.54 natural log
Substitution = A57M; result = -1.45 natural log
Substitution = A57P; result = -1.53 natural log
Substitution = Q55M; result = -1.37 natural log
Substitution = L31W; result = -1.49 natural log

Sample 6 — method: RNA Bind-n-Seq; form: RNA; medium: in vitro; concentration: 100 nM; relative to: input RNA pool; reading: higher = stronger binding; endpoint: bound/input enrichment
Target: RING finger protein unkempt homolog, zinc fingers 1-6, SBP tag (UNK, Homo sapiens, UniProt Q9C0B0, residues 30-357)
Chain of UniProt Q9C0B0 (30-357, looked up): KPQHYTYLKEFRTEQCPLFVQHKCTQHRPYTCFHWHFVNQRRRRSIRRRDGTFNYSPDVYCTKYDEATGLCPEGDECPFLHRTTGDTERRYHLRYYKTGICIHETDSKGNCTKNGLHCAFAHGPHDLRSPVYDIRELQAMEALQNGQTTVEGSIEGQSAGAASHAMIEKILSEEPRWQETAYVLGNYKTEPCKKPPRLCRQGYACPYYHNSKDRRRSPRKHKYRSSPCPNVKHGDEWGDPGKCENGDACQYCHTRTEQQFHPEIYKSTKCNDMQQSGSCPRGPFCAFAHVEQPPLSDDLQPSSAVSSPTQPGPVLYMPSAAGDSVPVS
Setting: RNA with constant flanks, vertebrate orthologous sites, ends assumed
Constant ends, left off below: GGGAGUUCUACAGUCCGACGAUC … CAACAGAGGAUUGAGCAUCA
Sequence = UAUAAGAACUCUUGCAGUCUUAGAUGUUAUAAAAAUACGUAUACCAAUUGUAAGAGUUGUUAGCACAGAUUUUUUUCUUUUCUUUUUUUUAAGCACUUGUUUUGGGUACAAGGCAUUUCU; result = 0.546 ratio
Sequence = AUGUUUUCGCAUUUCCUGAACAUAAUGGAUAAUCAUUUUUUUUUUCUUAAAUUUGUUCCCAAGUGCUGUUAUAACAAUGUGGAUGGACCAUAAAUGUACUUGCUGCAUUCAUUCAUUUUU; result = 0.282 ratio
Sequence = AGGGACGUUUUGAUGUGAAAAUUGAAGUUAAGAGCUGAUCACAAGCACAAAUCUUUCCCACUAGCCAUUUAAAAAAUUUAAAAAGAUACAAAAACAAAAACCUACUUGUCUUGAACAAAC; result = 3.24 ratio
Sequence = AGCAUCUGGAGACAUUUGGCCUUGUCUUUCAACAUAUGAUAAUAGUCCAGCAUCAUUCCAAAGCCCUUCUUCUAUUGCUAUGCAACCUAGUCCGAGUGCAUCUUGUUCAGAUGCUCACAU; result = 1.05 ratio
Sequence = GAAAAUGGCUUCUGCUCCAUUAAAAAGUAAAAAUUGUCCUCCAAAUAUAAAACUCCUUAAUAGAUAUUUUUGAAAUUAAAAUCUUUAAAUUUUAUAAAUCAGCUGUUGCCACUACACAAC; result = 2.44 ratio
Sequence = GUGACUUUGGGCGUCCGCACUACCUGGGUAGGGAGACUGCUUAGUCUUGACCCCGCAGAUUUGUUUUUCUCCGUUGGGCUGUAGACCUUUGCUGCAAACAUGCUCCGCCAGAUCAUCGGU; result = 0.506 ratio
Sequence = AUGUAGUUUGUUUUUAAUUUCAAGCAAAAUCUUAUUGUACUUGAAUGUGCCCUGUUUUGUUAGCACACCUAGACUUGCUGUAACUGUACUCAUGUCCCAGUAUGUACGUUCUUUCUAUGA; result = 0.981 ratio
Sequence = UUGUUUUUGUUUUGCACAUGACAGUGUGUGUAUUGAUCUGAGGAAGGAGGAGGGGCAUUGGCGCAGUUGGCCUCCAGUGCCCCCCACCCUCAACACCCCACCUGGUAUCUUUGCCACGUU; result = 0.162 ratio
Sequence = CUACCAUUGUAACCUGCUGUAUAAUAACCUUAGGCAUUUAUCAAUUGUUGAUACAAAUGUUAGUCCUUAACCACUUUUUAUAUGUUUUAAAUUUUGAAAUUCAAGUGUACCUGCCAUAAC; result = 2.45 ratio
Sequence = UCACUCUACUCUUGUUUUGGAAAUGGUACAAAAUACCUAAGGUGAAAUCCUGGCCCCAUUGAGGUCAAUGGGAGUUUUGUCGUAGACUUCAUUAGGGCUGGGAUUUCACCACUAGUCCAU; result = 0.37 ratio
Sequence = AUAAGAACUCUUGCAGUCUUAGAUGUUAUAAAAAAUAUGUAUCUGAAUUGUAAGAGUUGUUAGUACAGUUUUUUGUUUUUUAAAAGCACUUGUUUUGGGUACAAGGCUUUUCUGAAAUUU; result = 0.213 ratio

Further values, each from its own experiment
Substance = PhoQ, residues 284 288 289 292 302 303 TNSAEL; target = PhoP, residues 12 14 15 18 19 NHFRA (Escherichia coli, UniProt P23836); assay = Sort-seq, refers to: YFP reporter; test system = E. coli; conditions = PhoQ-PhoP variant library, together with: 10 µM Mg2+; scale = relative to: high Mg2+ state, higher = stronger signaling; endpoint = fold induction; result = 3.08

Some of these lines once more (sample 5):
Substitution = V35I; result = -1.54 natural log
Substitution = Q55M; result = -1.37 natural log
Substitution = L31H; result = -1.4 natural log
Substitution = A49G; result = -1.47 natural log
Substitution = E32C; result = -1.48 natural log
Substitution = L31W; result = -1.49 natural log
Substitution = S43V; result = -1.45 natural log
Substitution = A57P; result = -1.53 natural log
Substitution = R53H; result = -1.49 natural log
Substitution = L52C; result = -1.46 natural log
Substitution = K36G; result = -1.38 natural log
Substitution = A57M; result = -1.45 natural log
Substitution = K39S; result = -1.41 natural log
Substitution = I28N; result = -1.47 natural log
Substitution = A49Q; result = -1.39 natural log
